Experimental data of several laboratories.
± gives the spread as reported.
CYP2C9: Cytochrome P450 2C9 (CYP2C9, Homo sapiens, UniProt P11712)
CYP2C8: Cytochrome P450 2C8 (CYP2C8, Homo sapiens, UniProt P10632)
UniProt P10632, sequence (whole entry, looked up): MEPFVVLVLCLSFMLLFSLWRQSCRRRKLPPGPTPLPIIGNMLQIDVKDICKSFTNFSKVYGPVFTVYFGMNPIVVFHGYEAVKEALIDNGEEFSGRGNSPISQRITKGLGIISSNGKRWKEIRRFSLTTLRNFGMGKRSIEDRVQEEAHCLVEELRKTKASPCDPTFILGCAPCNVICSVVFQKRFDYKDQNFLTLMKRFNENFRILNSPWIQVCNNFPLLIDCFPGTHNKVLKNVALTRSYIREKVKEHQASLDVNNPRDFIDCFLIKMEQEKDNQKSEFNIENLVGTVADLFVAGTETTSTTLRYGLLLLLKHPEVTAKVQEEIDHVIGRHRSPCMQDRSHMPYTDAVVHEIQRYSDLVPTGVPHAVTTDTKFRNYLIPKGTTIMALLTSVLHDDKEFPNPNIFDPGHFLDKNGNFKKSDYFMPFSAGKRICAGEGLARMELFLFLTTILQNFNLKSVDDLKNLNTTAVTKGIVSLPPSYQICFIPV
ABCB1: ATP-dependent translocase ABCB1 (ABCB1, Homo sapiens, UniProt P08183)
UniProt P08183, sequence (whole entry, looked up): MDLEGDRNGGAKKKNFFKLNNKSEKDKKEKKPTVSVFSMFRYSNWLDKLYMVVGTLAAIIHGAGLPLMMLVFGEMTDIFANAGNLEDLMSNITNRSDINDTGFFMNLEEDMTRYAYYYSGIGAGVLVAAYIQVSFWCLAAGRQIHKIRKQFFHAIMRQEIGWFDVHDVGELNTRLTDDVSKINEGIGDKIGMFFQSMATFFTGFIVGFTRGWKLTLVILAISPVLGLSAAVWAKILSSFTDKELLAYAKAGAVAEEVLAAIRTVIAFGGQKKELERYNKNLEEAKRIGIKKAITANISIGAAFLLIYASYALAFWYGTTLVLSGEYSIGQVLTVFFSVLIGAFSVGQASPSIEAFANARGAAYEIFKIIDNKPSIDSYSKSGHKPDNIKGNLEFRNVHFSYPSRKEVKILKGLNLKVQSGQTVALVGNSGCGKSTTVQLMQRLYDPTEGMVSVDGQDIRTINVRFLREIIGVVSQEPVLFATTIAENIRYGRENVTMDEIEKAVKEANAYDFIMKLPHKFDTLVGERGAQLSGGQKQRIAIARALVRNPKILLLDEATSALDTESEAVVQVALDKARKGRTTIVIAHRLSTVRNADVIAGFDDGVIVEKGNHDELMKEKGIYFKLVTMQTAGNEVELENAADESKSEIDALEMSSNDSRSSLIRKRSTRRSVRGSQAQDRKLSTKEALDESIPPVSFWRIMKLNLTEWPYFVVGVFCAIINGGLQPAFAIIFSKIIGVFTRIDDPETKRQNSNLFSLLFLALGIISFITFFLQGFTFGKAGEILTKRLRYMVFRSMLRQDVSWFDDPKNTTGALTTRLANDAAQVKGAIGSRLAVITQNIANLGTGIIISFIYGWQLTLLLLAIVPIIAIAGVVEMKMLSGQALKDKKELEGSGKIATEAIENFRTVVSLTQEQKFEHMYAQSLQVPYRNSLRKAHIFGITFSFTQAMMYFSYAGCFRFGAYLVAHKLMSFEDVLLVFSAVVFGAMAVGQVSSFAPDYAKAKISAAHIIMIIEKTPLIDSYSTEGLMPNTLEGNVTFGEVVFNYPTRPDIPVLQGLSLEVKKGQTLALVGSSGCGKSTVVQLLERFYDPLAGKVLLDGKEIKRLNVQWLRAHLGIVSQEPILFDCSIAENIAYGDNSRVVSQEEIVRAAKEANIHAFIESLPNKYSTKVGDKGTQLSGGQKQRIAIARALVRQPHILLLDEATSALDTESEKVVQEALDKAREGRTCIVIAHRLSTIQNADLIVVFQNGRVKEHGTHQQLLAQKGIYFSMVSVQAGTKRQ
sspA: Glutamyl endopeptidase (sspA, Staphylococcus aureus, UniProt P0C1U8)
UniProt P0C1U8, sequence (whole entry, looked up): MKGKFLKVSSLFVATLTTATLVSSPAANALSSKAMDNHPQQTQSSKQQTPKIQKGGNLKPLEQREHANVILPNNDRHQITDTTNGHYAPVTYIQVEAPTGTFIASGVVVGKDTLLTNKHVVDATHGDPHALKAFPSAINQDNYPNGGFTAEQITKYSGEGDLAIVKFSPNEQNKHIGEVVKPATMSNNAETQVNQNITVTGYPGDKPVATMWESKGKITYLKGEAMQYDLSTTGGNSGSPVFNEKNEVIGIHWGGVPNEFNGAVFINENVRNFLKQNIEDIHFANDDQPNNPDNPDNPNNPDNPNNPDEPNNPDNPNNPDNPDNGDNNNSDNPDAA
UniProt Q06520, sequence (whole entry, looked up): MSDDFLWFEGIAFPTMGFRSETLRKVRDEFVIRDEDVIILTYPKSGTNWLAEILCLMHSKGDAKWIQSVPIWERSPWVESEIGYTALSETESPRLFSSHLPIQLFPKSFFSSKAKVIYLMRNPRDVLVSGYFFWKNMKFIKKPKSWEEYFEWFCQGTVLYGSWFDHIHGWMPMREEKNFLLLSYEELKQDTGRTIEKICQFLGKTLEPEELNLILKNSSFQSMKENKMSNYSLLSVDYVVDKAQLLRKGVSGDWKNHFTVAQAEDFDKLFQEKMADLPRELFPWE
UniProt P61073, sequence (whole entry, looked up): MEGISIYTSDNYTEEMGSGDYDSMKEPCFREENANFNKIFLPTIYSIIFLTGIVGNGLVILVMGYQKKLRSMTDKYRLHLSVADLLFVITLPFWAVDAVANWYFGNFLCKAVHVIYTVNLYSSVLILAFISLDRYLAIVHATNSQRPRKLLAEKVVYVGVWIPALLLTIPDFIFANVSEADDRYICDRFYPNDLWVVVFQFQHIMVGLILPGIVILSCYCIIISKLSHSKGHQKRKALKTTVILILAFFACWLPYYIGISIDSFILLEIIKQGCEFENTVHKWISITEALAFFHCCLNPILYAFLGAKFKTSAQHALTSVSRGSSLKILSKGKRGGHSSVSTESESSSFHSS
UniProt P27487, sequence (whole entry, looked up): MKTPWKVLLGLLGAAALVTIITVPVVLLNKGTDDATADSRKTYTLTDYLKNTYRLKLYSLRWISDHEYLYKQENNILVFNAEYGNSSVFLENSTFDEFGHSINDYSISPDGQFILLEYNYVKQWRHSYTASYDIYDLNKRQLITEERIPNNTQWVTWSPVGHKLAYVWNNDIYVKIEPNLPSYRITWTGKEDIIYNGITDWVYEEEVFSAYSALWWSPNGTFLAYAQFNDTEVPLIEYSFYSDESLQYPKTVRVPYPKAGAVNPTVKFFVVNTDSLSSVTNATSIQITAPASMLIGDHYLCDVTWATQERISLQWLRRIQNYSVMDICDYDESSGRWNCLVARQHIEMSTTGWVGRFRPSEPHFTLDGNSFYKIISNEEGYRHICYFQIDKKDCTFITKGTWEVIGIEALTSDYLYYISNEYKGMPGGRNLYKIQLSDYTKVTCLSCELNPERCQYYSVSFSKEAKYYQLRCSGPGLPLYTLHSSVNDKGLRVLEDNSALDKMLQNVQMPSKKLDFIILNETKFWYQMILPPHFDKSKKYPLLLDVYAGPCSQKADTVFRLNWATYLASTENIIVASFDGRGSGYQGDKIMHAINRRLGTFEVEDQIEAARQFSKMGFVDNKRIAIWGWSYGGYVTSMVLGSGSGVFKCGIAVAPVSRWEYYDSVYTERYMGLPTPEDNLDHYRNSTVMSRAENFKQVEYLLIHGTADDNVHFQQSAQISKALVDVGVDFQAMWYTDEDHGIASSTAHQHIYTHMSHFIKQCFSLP

SMILES | target | assay | test system | setting | how to read | endpoint | value
CCCS(=O)(=O)c1ccc2[nH]c(NC(=O)OC)nc2c1 | CYP2C9 | inhibitor | human liver microsomes | 2 µM, pH 7.4, added: diclofenac | – | inhibition | 6.06%
[64Cu+2].c1ccc(CNCc2ccc(CN3CCCNCCNCCCNCC3)cc2)nc1 | CXCR4 | – | NOD/SCID mouse, U87 and U87-stb-CXCR4 xenografts, lungs | iv, 90 min, no blocking dose, ex vivo | – | tissue uptake | 3.04 ± 0.17 %ID/g
CC[C@H](C)[C@H](NC(=O)[C@H](CCCCN)NC(=O)[C@H](CCC(=O)O)NC(=O)CNC(=O)CNC(=O)[C@H](CCCCN)NC(=O)[C@H](CCCNC(=N)N)NC(=O)[C@H](CC(C)C)NC(=O)[C@H](CC(C)C)NC(=O)CN)C(=O)NCC(=O)N[C@@H](CCC(=O)O)C(=O)N[C@@H](CCCCN)C(=O)N[C@@H](CC(C)C)C(=O)N[C@@H](CCCCN)C(=O)N[C@@H](CCCCN)C(=O)N[C@H](C(=O)NCC(=O)N[C@@H](CCC(N)=O)C(=O)N[C@@H](CCCCN)C(=O)N[C@H](C(=O)N[C@@H](CCCCN)C(=O)N[C@@H](CC(N)=O)C(=O)N[C@@H](Cc1ccccc1)C(=O)N[C@@H](Cc1ccccc1)C(=O)N[C@@H](CCC(N)=O)C(=O)N[C@@H](CCCCN)C(=O)N[C@@H](CC(C)C)C(=O)N[C@H](C(=O)N1CCC[C@H]1C(=O)N[C@@H](CCC(N)=O)C(=O)N1CCC[C@H]1C(=O)N[C@@H](CCC(=O)O)C(=O)N[C@@H](CCC(N)=O)C(=O)O)C(C)C)[C@@H](C)CC)[C@@H](C)CC | Escherichia coli OmpT | substrate | E. coli BL21 expressing ompT, PBS | 2 µg/µL, room temperature | – | time to cleavage | ≤ 15 min
[11CH3]Oc1ccc(Cc2ccncc2)nc1-c1cccc([N+](=O)[O-])c1 | PDE4D | – | rhesus monkey | dose not given, added: rolipram 1.0 mg/kg i.v. preblock | – | time to peak brain radioactivity | 2.25 min
CNC(=O)Oc1cc(C)c(S(C)(=O)=O)c(C)c1 | CYP2C9 | inhibitor | human liver microsomes | 10 µM, pH 7.4, added: diclofenac | – | inhibition | 5.31%
CCN(CC)CCOc1ccc(-c2nnn(Cc3ccc(OC)cc3)c2N)cc1 | CYP2C9 | enzyme activity, inhibitor | – | concentration not given | – | inhibition | no inhibition
C=CC(=O)Nc1cc(Nc2nccc(-c3cn(C)c4ccccc34)n2)c(OCC(F)(F)F)nc1N(C)CCN(C)C | CYP2C8 | enzyme activity, inhibitor | human, liver microsomes | 1 µM | – | activity vs control | 101%
CN1C(=O)[C@@H](Cc2ccc(O)cc2)NC(=O)CNC(=O)[C@H](Cc2ccc3ccccc3c2)NC(=O)[C@H](CCCNC(=N)N)NC(=O)[C@H]1CCCNC(=O)c1ccc(CNC(=O)CN2CCN(CC(=O)O)CCN(CC(=O)O)CCN(CC(=O)O)CC2)cc1 [gallium-68 labelled] | CXCR4 (Homo sapiens, UniProt P61073) | PET | human, brain background | – | – | SUVmean | 0.03
CCCCCC1=C(NCC)C(=O)C(C/C=C(\C)CCC=C(C)C)=C(O)C1=O | ABCB1 | transport, inhibitor | – | up to 22.5 µM | – | inhibition | 81%
CC(C)(O)c1ccccc1CC[C@H](c1cccc(/C=C/c2ccc3ccc(Cl)cc3n2)c1)S(=O)(=O)CC1(CC(=O)O)CC1 | CYP2C9 | inhibitor | human liver microsomes | 10 µM, pH 7.4, added: diclofenac | – | inhibition | 91.1%
N=C(N)NCCC[C@H](NC(=O)[C@H](Cc1c[nH]c2ccccc12)NC(=O)[C@H](CCCCN)NC(=O)[C@H](CCCNC(=N)N)NC(=O)[C@H](Cc1c[nH]c2ccccc12)NC(=O)[C@H](CCCCN)NC(=O)[C@H](CCCNC(=N)N)NC(=O)[C@H](Cc1c[nH]c2ccccc12)NC(=O)[C@H](CCCCN)NC(=O)[C@H](CCCNC(=N)N)NC(=O)[C@@H](N)Cc1c[nH]c2ccccc12)C(=O)N[C@@H](CCCCN)C(N)=O | pepsin | RP-HPLC | – | 6 h, 37 °C | – | remaining peptide | < 10%
CNC(=O)Oc1cc(C)c([S+](C)[O-])c(C)c1 (stereo not drawn) | CYP2C8 | – | human liver microsomes | 2 µM, pH 7.4, added: paclitaxel | – | inhibition | < 0%
C[C@]12CC[C@H](O)CC1CCC1C2[C@H](O)C(=O)[C@]2(C)[C@@H](c3ccc(=O)oc3)CC[C@]12O (stereo partly drawn) | SULT2A1 (Homo sapiens, UniProt Q06520) | substrate | human intestine cytosol | pH 7.4 | – | sulfation rate | 16.4 pmol/min/mg protein
Cc1ccc2nc(C)c(C(=O)NCc3ccc(C(F)(F)F)cc3)n2c1 | CYP2C9 | inhibitor | – | – | – | IC50 | 14.7 µM
O=C1Cc2cc(CCN3CCN(C4=NS(=O)(=O)c5ccccc54)CC3)c(Cl)cc2N1 | CYP2C9 | inhibitor | human liver microsomes | 2 µM, pH 7.4, added: diclofenac | – | inhibition | 0.77%
CC(C)C[C@H](NC(=O)[C@H](CCCCN)NC(=O)[C@H](CCCNC(=N)N)NC(=O)[C@@H](CC(C)C)NC(=O)[C@H](Cc1ccc(C(C)(C)C)cc1)NC(=O)[C@H](CC(=O)O)NC(=O)[C@H](CCCCN)NC(=O)[C@@H](CC(C)C)NC(=O)[C@H](CCCNC(=N)N)NC(=O)[C@H](CCC(N)=O)NC(=O)[C@@H](NC(=O)[C@@H](CC(C)C)NC(=O)[C@H](CCCNC(=N)N)NC(=O)[C@H](CCCCN)NC(=O)[C@H](Cc1ccc(C(C)(C)C)cc1)NC(=O)CN)C(C)C)C(=O)N[C@H](C(N)=O)C(C)C | sspA | substrate, SDS-PAGE | – | 24 h, pH 7.4, 37 °C | – | proteolytic stability | stable
CC[C@H](C)[C@H](NC(=O)[C@H](Cc1ccccc1)NC(=O)[C@H](CCC(=O)O)NC(=O)[C@H](CCCCN)NC(=O)[C@H](C)NC(=O)[C@H](C)NC(=O)[C@H](CCC(N)=O)NC(=O)CNC(=O)[C@H](CCC(=O)O)NC(=O)[C@H](CC(C)C)NC(=O)[C@H](Cc1ccc(O)cc1)NC(=O)[C@H](CO)NC(=O)[C@H](CO)NC(=O)[C@@H](NC(=O)[C@H](CC(=O)O)NC(=O)[C@H](CO)NC(=O)[C@@H](NC(=O)[C@H](Cc1ccccc1)NC(=O)[C@@H](NC(=O)CNC(=O)N(CCC(=O)O)NC(=O)[C@H](C)NC(=O)N(N)Cc1c[nH]cn1)[C@@H](C)O)[C@@H](C)O)C(C)C)C(=O)N[C@@H](C)C(=O)N[C@@H](Cc1c[nH]c2ccccc12)C(=O)N[C@@H](CC(C)C)C(=O)N[C@H](C(=O)N[C@@H](CCCNC(=N)N)C(=O)NCC(=O)N[C@@H](CCCNC(=N)N)C(=O)NCC(=O)O)C(C)C | DPP4 (Homo sapiens, UniProt P27487) | proteolytic stability, substrate, HPLC-UV | – | up to 24 h, pH 7.4, 37 °C, added: recombinant enzyme 16 nmol/l | – | half-life | > 24 h
CC(C)C[C@H](NC(=O)[C@H](CCCCN)NC(=O)[C@H](CCCNC(=N)N)NC(=O)[C@@H](CC(C)C)NC(=O)[C@H](Cc1c[nH]c2ccccc12)NC(=O)[C@H](CC(=O)O)NC(=O)[C@H](CCCCN)NC(=O)[C@@H](CC(C)C)NC(=O)[C@H](CCCNC(=N)N)NC(=O)[C@H](CCC(N)=O)NC(=O)[C@@H](NC(=O)[C@@H](CC(C)C)NC(=O)[C@H](CCCNC(=N)N)NC(=O)[C@H](CCCCN)NC(=O)[C@H](Cc1c[nH]c2ccccc12)NC(=O)CN)C(C)C)C(=O)N[C@H](C(N)=O)C(C)C | sspA | substrate, SDS-PAGE | – | 24 h, pH 7.4, 37 °C | – | proteolytic stability | stable
C=CCc1ccc(O)c(-c2cc(CC=C)cc(O)c2O)c1 | ABCB1 | rhodamine 123 efflux | – | 10 µM | baseline: GF120918 0.5 µM | inhibition | -0.3 ± 2%
CC(C)(O)c1ccccc1CC[C@H](c1cccc(/C=C/c2ccc3ccc(Cl)cc3n2)c1)[S+]([O-])CC1(CC(=O)O)CC1 (stereo partly drawn) | CYP2C9 | inhibitor | human liver microsomes | 10 µM, pH 7.4, added: diclofenac | – | inhibition | 76.5%
Cc1cn2c(C(=O)NCc3ccc(C(F)(F)F)cc3)c(C)nc2s1 | CYP2C9 | inhibitor | – | – | – | IC50 | 19.2 µM

For quick reference, copied from above:
SMILES | target | assay | test system | setting | how to read | endpoint | value
CC(C)(O)c1ccccc1CC[C@H](c1cccc(/C=C/c2ccc3ccc(Cl)cc3n2)c1)[S+]([O-])CC1(CC(=O)O)CC1 (stereo partly drawn) | CYP2C9 | inhibitor | human liver microsomes | 10 µM, pH 7.4, added: diclofenac | – | inhibition | 76.5%
Cc1cn2c(C(=O)NCc3ccc(C(F)(F)F)cc3)c(C)nc2s1 | CYP2C9 | inhibitor | – | – | – | IC50 | 19.2 µM
